Assay results of several laboratories.
Every numbered part comes from another study and shows a few of its results, in no order.
Sequence of UniProt P15056 (whole entry, unmodified, looked up): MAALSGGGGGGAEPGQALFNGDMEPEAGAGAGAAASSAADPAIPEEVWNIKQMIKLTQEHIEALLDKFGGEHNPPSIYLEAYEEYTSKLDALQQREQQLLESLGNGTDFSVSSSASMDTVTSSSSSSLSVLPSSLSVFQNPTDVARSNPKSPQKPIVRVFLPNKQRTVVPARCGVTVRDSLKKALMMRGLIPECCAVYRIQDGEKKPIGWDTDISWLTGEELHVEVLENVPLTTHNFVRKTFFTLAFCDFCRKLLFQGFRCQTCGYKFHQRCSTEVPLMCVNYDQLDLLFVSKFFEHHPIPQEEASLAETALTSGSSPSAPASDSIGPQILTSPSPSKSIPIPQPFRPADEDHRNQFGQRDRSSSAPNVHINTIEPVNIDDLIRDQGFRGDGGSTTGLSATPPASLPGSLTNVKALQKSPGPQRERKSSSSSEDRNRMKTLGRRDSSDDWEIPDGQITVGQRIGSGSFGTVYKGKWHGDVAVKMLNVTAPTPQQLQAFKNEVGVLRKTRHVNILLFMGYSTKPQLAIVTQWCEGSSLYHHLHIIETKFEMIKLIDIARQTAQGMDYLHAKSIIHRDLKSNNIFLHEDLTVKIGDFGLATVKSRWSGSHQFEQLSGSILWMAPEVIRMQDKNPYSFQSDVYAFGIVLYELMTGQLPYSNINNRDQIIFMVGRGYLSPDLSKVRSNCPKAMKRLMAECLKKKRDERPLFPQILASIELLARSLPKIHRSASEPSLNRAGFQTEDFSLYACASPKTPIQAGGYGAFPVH
Sequence of UniProt Q15569 (whole entry, looked up): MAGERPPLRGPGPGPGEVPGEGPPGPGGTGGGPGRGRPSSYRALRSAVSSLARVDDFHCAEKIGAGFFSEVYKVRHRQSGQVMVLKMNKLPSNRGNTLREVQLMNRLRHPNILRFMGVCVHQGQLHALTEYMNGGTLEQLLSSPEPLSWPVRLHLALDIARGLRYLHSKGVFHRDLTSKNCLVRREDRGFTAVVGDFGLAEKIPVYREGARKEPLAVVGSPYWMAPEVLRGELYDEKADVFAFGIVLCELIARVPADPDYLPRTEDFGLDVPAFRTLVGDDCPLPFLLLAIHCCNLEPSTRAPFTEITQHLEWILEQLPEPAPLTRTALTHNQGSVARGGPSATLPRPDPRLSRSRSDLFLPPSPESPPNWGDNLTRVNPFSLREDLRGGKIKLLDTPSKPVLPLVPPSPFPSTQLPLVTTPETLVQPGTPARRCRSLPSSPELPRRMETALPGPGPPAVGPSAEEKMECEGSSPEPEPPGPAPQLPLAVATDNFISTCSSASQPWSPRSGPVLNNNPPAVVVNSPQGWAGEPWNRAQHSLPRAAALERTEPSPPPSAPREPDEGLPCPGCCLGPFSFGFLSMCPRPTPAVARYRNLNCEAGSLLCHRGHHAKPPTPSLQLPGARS
Sequence of UniProt Q9BZL6 (whole entry, looked up): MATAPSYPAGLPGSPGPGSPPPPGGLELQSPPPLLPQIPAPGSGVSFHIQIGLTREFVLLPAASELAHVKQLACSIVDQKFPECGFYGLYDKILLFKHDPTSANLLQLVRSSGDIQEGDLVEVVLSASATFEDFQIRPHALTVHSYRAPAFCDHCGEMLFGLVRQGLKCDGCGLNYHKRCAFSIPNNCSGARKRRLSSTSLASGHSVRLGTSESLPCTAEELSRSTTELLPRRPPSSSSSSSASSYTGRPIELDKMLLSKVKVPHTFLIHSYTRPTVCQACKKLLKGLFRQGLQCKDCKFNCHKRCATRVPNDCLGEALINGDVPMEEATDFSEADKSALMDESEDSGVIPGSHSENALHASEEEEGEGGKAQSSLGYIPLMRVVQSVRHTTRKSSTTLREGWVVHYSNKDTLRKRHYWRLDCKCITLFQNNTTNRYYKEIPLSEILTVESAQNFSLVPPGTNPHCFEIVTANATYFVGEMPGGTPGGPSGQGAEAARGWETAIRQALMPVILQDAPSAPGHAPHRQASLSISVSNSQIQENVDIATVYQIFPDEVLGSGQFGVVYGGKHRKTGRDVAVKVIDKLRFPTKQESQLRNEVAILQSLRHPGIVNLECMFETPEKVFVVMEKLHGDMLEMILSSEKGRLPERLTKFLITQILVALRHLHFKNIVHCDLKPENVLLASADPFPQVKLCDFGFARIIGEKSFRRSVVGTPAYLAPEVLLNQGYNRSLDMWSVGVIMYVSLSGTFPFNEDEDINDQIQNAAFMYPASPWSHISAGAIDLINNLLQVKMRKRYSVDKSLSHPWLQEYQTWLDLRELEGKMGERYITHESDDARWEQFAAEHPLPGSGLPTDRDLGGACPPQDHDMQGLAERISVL
Sequence of UniProt P22455 (whole entry, looked up): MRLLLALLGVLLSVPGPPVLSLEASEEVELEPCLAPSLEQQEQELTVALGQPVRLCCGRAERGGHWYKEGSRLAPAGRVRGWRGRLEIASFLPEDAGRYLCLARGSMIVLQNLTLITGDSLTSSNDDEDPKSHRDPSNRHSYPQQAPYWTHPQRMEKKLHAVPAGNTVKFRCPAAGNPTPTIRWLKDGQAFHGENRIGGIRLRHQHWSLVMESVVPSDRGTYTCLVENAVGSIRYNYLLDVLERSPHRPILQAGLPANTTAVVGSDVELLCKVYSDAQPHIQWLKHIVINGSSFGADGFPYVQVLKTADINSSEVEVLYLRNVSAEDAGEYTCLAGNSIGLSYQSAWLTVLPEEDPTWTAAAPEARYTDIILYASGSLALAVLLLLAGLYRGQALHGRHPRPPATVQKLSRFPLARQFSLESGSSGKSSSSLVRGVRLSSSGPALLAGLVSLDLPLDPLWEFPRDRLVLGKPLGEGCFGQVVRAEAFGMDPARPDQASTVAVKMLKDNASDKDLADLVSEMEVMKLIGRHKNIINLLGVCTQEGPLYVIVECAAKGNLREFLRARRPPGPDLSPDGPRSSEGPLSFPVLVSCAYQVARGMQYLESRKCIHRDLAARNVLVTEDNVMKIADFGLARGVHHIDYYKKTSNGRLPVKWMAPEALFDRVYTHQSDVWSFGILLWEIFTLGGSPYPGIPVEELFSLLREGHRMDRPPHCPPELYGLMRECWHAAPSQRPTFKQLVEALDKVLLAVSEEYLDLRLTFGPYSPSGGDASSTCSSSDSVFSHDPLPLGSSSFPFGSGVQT
Sequence of UniProt Q96PN8 (whole entry, looked up): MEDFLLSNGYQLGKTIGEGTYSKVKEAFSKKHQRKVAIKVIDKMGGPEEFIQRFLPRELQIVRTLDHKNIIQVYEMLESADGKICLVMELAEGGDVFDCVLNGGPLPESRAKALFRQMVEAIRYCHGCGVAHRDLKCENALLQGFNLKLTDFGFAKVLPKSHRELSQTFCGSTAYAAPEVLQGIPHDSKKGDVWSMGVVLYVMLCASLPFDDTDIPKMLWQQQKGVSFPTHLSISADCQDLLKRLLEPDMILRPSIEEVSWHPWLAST
Sequence of UniProt Q86YV6 (whole entry, looked up): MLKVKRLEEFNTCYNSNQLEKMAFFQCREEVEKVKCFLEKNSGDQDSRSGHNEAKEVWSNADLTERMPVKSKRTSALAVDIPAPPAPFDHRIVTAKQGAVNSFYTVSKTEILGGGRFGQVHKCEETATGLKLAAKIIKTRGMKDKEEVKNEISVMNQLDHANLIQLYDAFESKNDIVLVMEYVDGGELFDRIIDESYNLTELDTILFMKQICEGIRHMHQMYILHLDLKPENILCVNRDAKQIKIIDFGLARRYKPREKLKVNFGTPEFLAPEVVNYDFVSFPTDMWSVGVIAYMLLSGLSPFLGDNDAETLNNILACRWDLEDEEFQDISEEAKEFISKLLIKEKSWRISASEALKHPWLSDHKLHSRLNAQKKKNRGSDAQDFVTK

Series 1 — method: competition with immobilised ligand; concentration: 1 µM; endpoint: remaining binding
Structure (SMILES): O=C(NCc1ncc(C(F)(F)F)cc1Cl)c1ccc2c(c1)C1(CCS(=O)(=O)CC1)[C@H](C1CC1)N2S(=O)(=O)c1ccc(F)cc1
target = Serine/threonine-protein kinase PLK2 (PLK2, Homo sapiens, UniProt Q9NYY3); read-out = cell-free assay; result = 76%
target = Testis-specific serine/threonine-protein kinase 3 (TSSK3, Homo sapiens, UniProt Q96PN8); read-out = cell-free assay; result = 87%
target = Myosin-IIIa (MYO3A, Homo sapiens, UniProt Q8NEV4); read-out = binding; result = 100%
target = Serine/threonine-protein kinase BRSK2 (BRSK2, Homo sapiens, UniProt Q8IWQ3); read-out = cell-free assay; result = 100%
target = Fibroblast growth factor receptor 4 (FGFR4, Homo sapiens, UniProt P22455); read-out = cell-free assay; result = 100%
target = Serine/threonine-protein kinase B-raf (BRAF, Homo sapiens, UniProt P15056); read-out = cell-free assay; result = 91%
target = Mast/stem cell growth factor receptor Kit (KIT, Homo sapiens, UniProt P10721, D816V); read-out = cell-free assay; result = 100%
target = Epidermal growth factor receptor (EGFR, Homo sapiens, UniProt P00533, del747-752/P753S); read-out = cell-free assay; result = 100%
target = Insulin receptor (INSR, Homo sapiens, UniProt P06213); read-out = cell-free assay; result = 100%
target = Dual specificity mitogen-activated protein kinase kinase 2 (MAP2K2, Homo sapiens, UniProt P36507); read-out = cell-free assay; result = 88%
target = Dual specificity testis-specific protein kinase 1 (TESK1, Homo sapiens, UniProt Q15569); read-out = cell-free assay; result = 91%
target = Myosin light chain kinase family member 4 (MYLK4, Homo sapiens, UniProt Q86YV6); read-out = cell-free assay; result = 100%
target = Serine/threonine-protein kinase B-raf (BRAF, Homo sapiens, UniProt P15056, V600E); read-out = cell-free assay; result = 84%
target = Death-associated protein kinase 1 (DAPK1, Homo sapiens, UniProt P53355); read-out = cell-free assay; result = 100%
target = Cyclin-dependent kinase 14 (CDK14, Homo sapiens, UniProt O94921); read-out = cell-free assay; result = 100%
target = Activated CDC42 kinase 1 (TNK2, Homo sapiens, UniProt Q07912); read-out = cell-free assay; result = 85%
target = Phosphatidylinositol 4,5-bisphosphate 3-kinase catalytic subunit delta isoform (PIK3CD, Homo sapiens, UniProt O00329); read-out = cell-free assay; result = 67%
target = Serine/threonine-protein kinase WNK3 (WNK3, Homo sapiens, UniProt Q9BYP7); read-out = cell-free assay; result = 86%
target = Serine/threonine-protein kinase D2 (PRKD2, Homo sapiens, UniProt Q9BZL6); read-out = cell-free assay; result = 98%
target = eIF-2-alpha kinase GCN2, C-terminal kinase domain (EIF2AK4, Homo sapiens, UniProt Q9P2K8, S808G); read-out = cell-free assay; result = 88%

Series 2 — read-out: enzyme activity; mode: inhibitor; concentration: 10 µM; endpoint: inhibition
Target: Calcium/calmodulin-dependent protein kinase type II subunit alpha (CAMK2A, Homo sapiens, UniProt Q9UQM7)
Sequence of UniProt Q9UQM7 (whole entry, looked up): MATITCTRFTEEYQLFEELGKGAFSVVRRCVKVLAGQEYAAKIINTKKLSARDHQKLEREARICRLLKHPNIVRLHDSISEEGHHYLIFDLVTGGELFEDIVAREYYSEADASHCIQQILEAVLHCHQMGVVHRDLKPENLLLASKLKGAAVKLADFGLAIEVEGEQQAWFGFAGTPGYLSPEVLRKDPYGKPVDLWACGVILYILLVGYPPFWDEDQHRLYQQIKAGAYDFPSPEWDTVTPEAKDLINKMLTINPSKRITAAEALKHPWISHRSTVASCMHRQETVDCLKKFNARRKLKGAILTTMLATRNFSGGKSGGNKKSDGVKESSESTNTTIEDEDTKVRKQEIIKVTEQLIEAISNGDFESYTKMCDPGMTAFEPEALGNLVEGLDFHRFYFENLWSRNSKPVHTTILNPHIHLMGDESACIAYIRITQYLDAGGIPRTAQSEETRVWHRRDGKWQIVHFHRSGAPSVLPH
SMILES = O=C1C[C@@H](c2ccc(O[C@@H]3O[C@H](CO)[C@@H](O)[C@H](O)[C@H]3O)cc2)Oc2cc(O)ccc21; result = -26%
SMILES = CN[C@@H]1[C@H](O[C@H]2[C@H](O[C@H]3[C@H](O)[C@@H](O)[C@H](N=C(N)N)[C@@H](O)[C@@H]3N=C(N)N)O[C@@H](C)[C@]2(O)C=O)O[C@@H](CO)[C@H](O)[C@H]1O; result = 5%
SMILES = COc1cc(C)c2c(=O)c(-c3ccccc3)coc2c1; result = -5%
SMILES = OC[C@H]1O[C@@H](n2cnc3c2NC=NC[C@H]3O)C[C@@H]1O; result = -3%
SMILES = CCOc1ccc(C[C@H]2NC(=O)CCSSC[C@@H](C(=O)N3CCC[C@H]3C(=O)N[C@@H](CCCN)C(=O)NCC(N)=O)NC(=O)[C@H](CC(N)=O)NC(=O)[C@H]([C@@H](C)O)NC(=O)[C@H]([C@@H](C)CC)NC2=O)cc1; result = -10%
SMILES = C[C@@H]1CC[C@@]2(OC1)O[C@H]1C[C@H]3[C@@H]4CC=C5C[C@@H](O[C@@H]6O[C@H](CO)[C@@H](O[C@@H]7O[C@@H](CO)[C@H](O)[C@H]7O)[C@H](O)[C@H]6O[C@@H]6O[C@@H](C)[C@H](O)[C@@H](O)[C@H]6O)CC[C@]5(C)[C@H]4CC[C@]3(C)[C@@]1(O)[C@@H]2C; result = -8%
SMILES = O=C(O)C(=O)c1ccccc1; result = -4%
SMILES = NC(COP(=O)(O)O)C(=O)O (racemic); result = -35%
SMILES = CC(C)(O)CC[C@@H](O)[C@](C)(O)[C@H]1CC=C2C3=C(CC[C@@]21C)[C@@]1(C)C[C@H](O)[C@H](O)C[C@H]1C(=O)C3; result = 4%
SMILES = C/C=C(/C)C(=O)O[C@H]1C(C)=C[C@]23C(=O)[C@@H](C=C4COC(C)(C)O[C@H]4[C@]12O)[C@H]1[C@@H](C[C@H]3C)C1(C)C; result = -43%
SMILES = CCN(CC)C(=O)c1ccc(O)c(OC)c1; result = -5%
SMILES = C=CC(C)(C)O[C@@H]1O[C@H](CO)[C@@H](O)[C@H](O)[C@H]1O; result = 29%
SMILES = COc1ccc(/C=C/c2cc(O)cc(O[C@@H]3O[C@H](CO)[C@@H](O)[C@H](O)[C@H]3O)c2)cc1O; result = -48%
SMILES = Oc1ncnc2[nH]ncc12; result = -5%
SMILES = CC(C)Oc1ccc(-c2nc(-c3cccc4c3CC[C@@H]4NCCO)no2)cc1C#N; result = 10%
SMILES = CCOC(=O)c1ccc(OC(=O)CCCCCNC(=N)N)cc1; result = -15%
SMILES = Nc1ccn([C@@H]2CS[C@H](CO)O2)c(=O)n1; result = -3%
SMILES = Cc1cc(=O)oc2cc(O)ccc12; result = 25%
SMILES = COc1ccc2c3ccnc4ccc(=O)n(c2c1)c43; result = -29%

Series 3 — organism: Plasmodium berghei; mode: inhibitor; cells: Huh-7; strain: GFP-expressing sporozoites, liver stage; concentration: 10 µM; time: 24 h; reference: untreated control; endpoint: infection rate
Compound = O=C1c2cccc(O)c2C(=O)c2c(O)cccc21; result = 104%
Compound = COc1ccc(C(=O)CC(=O)c2ccc(C(C)(C)C)cc2)cc1; result = 89.7%
Compound = CCOC(=O)C(C)(C)Oc1ccc(Cl)cc1; result = 106%
Compound = CCCCCCCCCCCCCCCC(=O)O[C@@H]1[C@@H](O)[C@@H](O)[C@@H]([C@H](NC(=O)[C@@H]2C[C@@H](CCC)CN2C)[C@H](C)Cl)O[C@@H]1SC; result = 92%
Compound = CC[C@@H](CO)NCCN[C@@H](CC)CO; result = 111%
Compound = O=C(Cn1ccnc1[N+](=O)[O-])NCCO; result = 93.7%
Compound = CC1=C(/C=C/C(C)=C/C=C/C(C)=C/C=C/C=C(C)/C=C/C=C(C)/C=C/C2=C(C)CCCC2(C)C)C(C)(C)CCC1; result = 121%
Compound = Cc1c2oc3c(C)ccc(C(=O)N[C@@H]4C(=O)N[C@H](C(C)C)C(=O)N5CCC[C@H]5C(=O)N(C)CC(=O)N(C)[C@@H](C(C)C)C(=O)O[C@@H]4C)c3nc-2c(C(=O)N[C@@H]2C(=O)N[C@H](C(C)C)C(=O)N3CCC[C@H]3C(=O)N(C)CC(=O)N(C)[C@@H](C(C)C)C(=O)O[C@@H]2C)c(N)c1=O; result = 1.2%
Compound = C[C@H](CCC(=O)O)[C@H]1CC[C@H]2[C@@H]3[C@H](O)C[C@@H]4C[C@H](O)CC[C@]4(C)[C@H]3CC[C@]12C; result = 92.9%

Series 4 — read-out: enzyme activity; mode: inhibitor; concentration: 0.5 µM; reference: control; endpoint: remaining activity
Target: Tyrosine-protein kinase Fgr (FGR, Homo sapiens, UniProt P09769)
Sequence of UniProt P09769 (whole entry, looked up): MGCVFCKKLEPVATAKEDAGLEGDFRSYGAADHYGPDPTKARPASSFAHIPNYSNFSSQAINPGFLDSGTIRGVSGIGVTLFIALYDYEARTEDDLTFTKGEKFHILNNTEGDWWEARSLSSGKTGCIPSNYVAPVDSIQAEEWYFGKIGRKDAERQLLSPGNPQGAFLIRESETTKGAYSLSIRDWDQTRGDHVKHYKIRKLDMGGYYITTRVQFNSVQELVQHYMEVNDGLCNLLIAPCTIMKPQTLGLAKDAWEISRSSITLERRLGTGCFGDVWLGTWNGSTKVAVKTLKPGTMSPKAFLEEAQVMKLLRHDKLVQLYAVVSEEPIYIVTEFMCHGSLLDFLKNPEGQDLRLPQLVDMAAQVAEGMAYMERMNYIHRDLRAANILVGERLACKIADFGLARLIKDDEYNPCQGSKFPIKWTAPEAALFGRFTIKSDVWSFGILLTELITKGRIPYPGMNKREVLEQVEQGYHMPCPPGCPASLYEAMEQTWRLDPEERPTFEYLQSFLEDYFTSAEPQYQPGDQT
Structure (SMILES) = Oc1ccc(Nc2nc(-c3ccc(Cl)cc3)cs2)cc1; result = 96.4%
Structure (SMILES) = CC[n+]1c(/C=C/N(C)c2ccccc2)n(-c2ccccc2)c2ccc(-c3nc4ccccc4s3)cc21; result = 94.1%
Structure (SMILES) = Cc1cncc2cccc(S(=O)(=O)N3CCCN(C(=O)CN)C[C@@H]3C)c12; result = 94.1%
Structure (SMILES) = Nc1nc(Nc2ccc(S(N)(=O)=O)cc2)nn1C(=O)c1c(F)cccc1F; result = 63.5%
Structure (SMILES) = CC#CC(=O)Nc1cc2c(Nc3ccc(F)c(Cl)c3)ncnc2cn1; result = 89.6%
Structure (SMILES) = CCc1[nH]c(-c2ccc(OC)cc2)nc1-c1ccncc1; result = 97.2%
Structure (SMILES) = Fc1ccc(-c2nc3n(c2-c2ccncc2)CCS3)cc1; result = 92.6%
Structure (SMILES) = Nc1nccc(-c2c(-c3ccc(F)cc3)ncn2C2CCNCC2)n1; result = 95.9%
Structure (SMILES) = CC(=O)c1ccc(N2CCOCC2)cc1O; result = 95.6%
Structure (SMILES) = COc1ccc(S(=O)(=O)N(CCO)c2ccccc2CN(C)CC=Cc2ccc(Cl)cc2)cc1; result = 99.8%
Structure (SMILES) = N#CC(=C(N)Sc1ccc(N)cc1)c1ccccc1C(F)(F)F; result = 101%
Structure (SMILES) = O=C1Cc2c([nH]c3ccc([N+](=O)[O-])cc23)-c2ccccc2N1; result = 50.3%
Structure (SMILES) = COc1cc(Nc2c(C#N)cnc3cc(OCCCN4CCN(C)CC4)c(OC)cc23)c(Cl)cc1Cl; result = 11.5%
Structure (SMILES) = O=C1NC(=O)C(c2c[nH]c3ccccc23)=C1c1c[nH]c2ccccc12; result = 88.5%
Structure (SMILES) = CSc1nc(-c2ccnc(N[C@@H](C)c3ccccc3)c2)c(-c2ccc(F)cc2)[nH]1 (racemic); result = 88.1%
Structure (SMILES) = CC(C)(C)n1nc(Cc2cccc3ccccc23)c2c(N)ncnc21; result = 60.4%
Structure (SMILES) = Cc1ccc(NC2=CC(=O)c3sc(C)nc3C2=O)cc1; result = 85.3%
Structure (SMILES) = O=S(=O)(NCCNC/C=C/c1ccc(Br)cc1)c1cccc2cnccc12; result = 106%
Structure (SMILES) = Nc1ncnc2c1cnn2-c1ccccc1; result = 93.8%
Structure (SMILES) = Cc1cc(Nc2nc(-c3ccccc3)nc3ccccc23)n[nH]1; result = 54.8%
Structure (SMILES) = NC(=O)c1ccc(N(C(N)=O)c2c(F)cccc2F)nc1-c1ccc(F)cc1F; result = 94.7%
Structure (SMILES) = CCCC(=O)Oc1ccc2[nH]c(C(=O)c3cc4ccccc4[nH]3)cc2c1; result = 88.4%

Some of these lines once more (series 1):
target = Dual specificity mitogen-activated protein kinase kinase 2 (MAP2K2, Homo sapiens, UniProt P36507); read-out = cell-free assay; result = 88%
target = Phosphatidylinositol 4,5-bisphosphate 3-kinase catalytic subunit delta isoform (PIK3CD, Homo sapiens, UniProt O00329); read-out = cell-free assay; result = 67%
target = Epidermal growth factor receptor (EGFR, Homo sapiens, UniProt P00533, del747-752/P753S); read-out = cell-free assay; result = 100%
target = Serine/threonine-protein kinase WNK3 (WNK3, Homo sapiens, UniProt Q9BYP7); read-out = cell-free assay; result = 86%
target = Serine/threonine-protein kinase B-raf (BRAF, Homo sapiens, UniProt P15056); read-out = cell-free assay; result = 91%
target = Cyclin-dependent kinase 14 (CDK14, Homo sapiens, UniProt O94921); read-out = cell-free assay; result = 100%
target = Dual specificity testis-specific protein kinase 1 (TESK1, Homo sapiens, UniProt Q15569); read-out = cell-free assay; result = 91%
